# Measurements pooled from the literature.
# Each numbered part is a random draw from the data of one study; scales do not carry over between parts.

# Block 1
# Target: Interferon regulatory factor 7, full length, phosphomimetic (IRF7, Homo sapiens, UniProt Q92985, residues 1-503, S471D/S472D/S475D/S476D/S477D/S483D/S484D/S487D)
# Sequence of UniProt Q92985 (whole entry, unmodified, looked up): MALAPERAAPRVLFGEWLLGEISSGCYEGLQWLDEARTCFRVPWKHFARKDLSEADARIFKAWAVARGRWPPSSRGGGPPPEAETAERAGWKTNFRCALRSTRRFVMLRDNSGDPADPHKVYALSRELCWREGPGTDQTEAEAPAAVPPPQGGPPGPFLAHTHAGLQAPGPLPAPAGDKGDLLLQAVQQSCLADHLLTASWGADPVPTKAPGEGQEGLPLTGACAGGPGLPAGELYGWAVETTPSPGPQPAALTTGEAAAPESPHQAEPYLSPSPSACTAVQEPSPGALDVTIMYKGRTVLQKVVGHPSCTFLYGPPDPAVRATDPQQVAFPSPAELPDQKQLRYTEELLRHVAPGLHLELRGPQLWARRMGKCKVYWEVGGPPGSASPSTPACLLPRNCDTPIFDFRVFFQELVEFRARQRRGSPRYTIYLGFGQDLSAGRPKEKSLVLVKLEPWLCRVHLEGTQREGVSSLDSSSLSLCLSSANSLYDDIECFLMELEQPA
# Method: protein-binding microarray
# Molecule type: double-stranded DNA, one strand shown
# Sample: in vitro
# Tested at: 2200 nM top
# Setting: 60-bp whole probe
# With: salmon DNA 0.4 mg/ml
# Baseline: random background probes
# Direction: higher = stronger binding
# All sequences stand within: GCCTAGCAC … GTCTTGATTCGCTTGACGCTGCTG
Strand,fitted relative affinity [z-score]
TCATTTTTCACTATTGCACTGTGCTAG,2.92
TTAGATTTCACACTGGATTAGTGCTAG,0.466
TTAGGTCTCGGTCTCGCTTAGTGCTAG,0.562
TTAGGTTTCTTTTTCCTTTAGTGCTAG,4.75
TTCTTTACCACATTCTCTGCGTGCTAG,1.69
GACGGCTTCGGTATCGGGACGTGCTAG,-0.14
TCACATTTGGTTAGCGTACTGTGCTAG,2.04
GACGAACTGGGGACTGGAGAGGTGCTA,-0.75
TACTGTGTGCATCTATCTTAGTGCTAG,0.729
TTAGGTATCGGTCTCGGATAGTGCTAG,0.885
TGTGCTTTCCTGATGGTTCTGTGCTAG,2.33
AAACCATTTTTTTTCACTATGTGCTAG,1.23
TTAGATTTCGGGACTGAATTAGTGCTA,0.581
GACGGTTCCCTACTGCTGACGTGCTAG,1.17
GACGAACTGTGACTGGAGACGTGCTAG,0.0492
TTAGGACTGGACTTACGGTTAGTGCTA,-0.276
TCAAGTCCCATGTTGCAGACTGTGCTA,0.465
GACGGTCTTCTACTGCTGACGTGCTAG,0.435
GACGATCTCAGGCTGGAGACGTGCTAG,0.127

# Block 2
# Target: Prothrombin, mature alpha-thrombin (F2, Homo sapiens, UniProt P00734)
# Method: aptamer microarray, sandwich
# Molecule type: DNA with 2'F-ANA
# Sample: in vitro
# Tested at: 200 nM
# Setting: whole 15-mer aptamer, many near background
# With: Cy3 exosite-II aptamer, 400 nM
# Direction: higher = stronger binding
# Strand: GGTTGGTGTGGTTGG
Modification,mean fluorescence intensity
2'F-ANA at 3 5 6 8 11 13,136 a.u.
2'F-ANA at 1 2 5 6 7 8 9 10 15,51.4 a.u.
2'F-ANA at 1 2 5 6 8 9 10 12 14 15,59.7 a.u.
2'F-ANA at 2 4 5 6 7 10 12 14 15,51 a.u.
2'F-ANA at 2 3 8 10 13 14 15,282 a.u.
2'F-ANA at 1 2 4 5,104 a.u.
2'F-ANA at 1 4 6 8 9 11 12 13,142 a.u.
2'F-ANA at 1 2 3 7 9 10 14 15,52.7 a.u.
2'F-ANA at 1 2 3 4 8 11 14,70.4 a.u.
2'F-ANA at 1 2 4 5 6 8 10,55.6 a.u.
2'F-ANA at 2 4 5 6 8 14,70.9 a.u.
2'F-ANA at 2 3 5 10 11 13 15,71.4 a.u.
2'F-ANA at 1 4 7 9 10 11 12 14 15,48 a.u.
2'F-ANA at 2 3 4 5 6 7 8 10 11 13,69.5 a.u.
2'F-ANA at 1 2 9 11 12 13 14 15,71 a.u.
2'F-ANA at 2 3 5 6 7 9 11 14,50.5 a.u.
2'F-ANA at 3 4 8 11 12 13 14,366 a.u.
2'F-ANA at 2 7 8 9 11 14,159 a.u.
2'F-ANA at 2 3 4 5 6 9 12 13 14 15,51.1 a.u.
2'F-ANA at 1 5 7 8 9 10 11 14,47.9 a.u.
2'F-ANA at 1 4 5 7 8 10 13 14 15,47.4 a.u.
2'F-ANA at 3 4 6 8 9 14,241 a.u.
2'F-ANA at 1 2 3 6 8 9 10 15,66 a.u.
2'F-ANA at 1 2 3 5 6 7 8 9 10 11 13 14 15,55.2 a.u.

# Block 3
# Target: Histone acetyltransferase KAT6A, winged helix 2, GST fusion (KAT6A, Homo sapiens, UniProt Q92794, residues 85-181)
# Method: protein binding microarray
# Molecule type: double-stranded DNA, one strand shown
# Sample: in vitro
# Tested at: not given
# Setting: 8-mer, flanks averaged, mean of 2 arrays, mostly near background
# Baseline: not given
# Direction: higher = stronger binding
# Target sequence (chain): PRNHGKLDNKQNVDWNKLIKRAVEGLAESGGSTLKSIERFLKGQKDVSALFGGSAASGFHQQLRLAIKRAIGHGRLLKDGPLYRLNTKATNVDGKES
Strand,E-score
GCACCAGA,0.104
GGCGTAAC,-0.196
ACGTTAGA,-0.0984
CACGAGGC,0.185
ATCATTTA,0.104
AACGGGCA,-0.0495
ACGATGCA,0.0614
GATACTAC,0.0332
CGAGCCCA,0.123
CGGCGTTC,0.0852
ACTGGCCG,-0.0539
CTATATTA,0.0548
AGACAGTG,-0.0389
ACCCTCGG,0.0583
CGCGCAGA,0.16
GATTGTTA,0.00491

# Block 4
# Target: RNA binding protein fox-1 homolog 2, RRM domain, GST-SBP tag (RBFOX2, Homo sapiens, UniProt O43251-10, residues 100-194)
# Method: RNA Bind-n-Seq
# Molecule type: RNA
# Sample: in vitro
# Tested at: 365 nM
# Setting: natural RNA segment, single round, ends assumed
# Baseline: no-protein control
# Direction: higher = stronger binding
# All sequences stand within: GGGAGUUCUACAGUCCGACGAUC … UGGAAUUCUCGGGUGCCAA
# Construct (chain): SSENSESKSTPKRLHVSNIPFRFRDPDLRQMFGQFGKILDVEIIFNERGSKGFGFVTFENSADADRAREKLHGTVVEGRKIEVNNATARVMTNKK
Strand,RBNS enrichment (R)
ACAUUCCAUUUUGGUAGCAAUAUGCAGUCCGAAUGCAUGCAUUCAUAAGUCCAUUUGGCCAAGUCAGCCUGUGUGCUACUGAACUGUCAAGAGAUUGCCACUCUCAUAGG,1.73
GAUUGUUGUCAUUUGGCUCUGCAGCUUGUUUUGUCGUCUGUGUCUGUCUGAGGAACCUGUGUGUCCAGAGCCACAUGAAAUGUGAAUGAUUGUUGGCAAUAUAAUCUUGA,2.25
UUUUUGACCUUUCUUCUCUCAACAGGAACCUGCCUGAGGACACCCUUCUAGAGCAAGGAAUUGACUUUUAGGAGCCGUUCUCCCCACAAGACACCACAUGACAAGGGGUA,0.342
CCACUGUUAGCCCAUUAUAUUCAUUCCAAUUAGAAGAAAUGUGAAUACUAUAUUCCGUGUUUUGAGUGACAAGUUUCGAAAAAUAAAAACACUGUAUUUUUAAAAGGGAA,0.447
AAUACUUUUGUUCCAAACCAUUAAGUAAUGUACGCAUGUUAAACACGUAGAGUGCCUGGCACUGGCAAGGACUCAGUGGUCCACUAUUGUGACAGUAAUGGUUAUUACAA,4.43
CCCUCCCCUUGUUACAGAUGGCGUAGAAGUCACAAGUCUGUUAAUUGGACUGUUGCUUCUUUGCCUGUUCCUGCUUUCUCUUUCUGUCUGGAUAGUCAGGAAAAGAUUUA,0.202
CUGUUUGUAGCUGAAUGUUACAUUUUUUUAAAAAUCUCUGUUCAAGCCAGAAGAGUUGAUUAUGAGUGGCCACAGCAACCCUGGCAAGCUGGGCCAAAAAAUUUCAGUAG,0.528
UGAAGGGCCUGGUCCCUCUCUAGAUAGUGGUUUCUUUAGGGUUAACAAAAGGCUUUUGUUCAUACCAAAGGCUUUUGUGUGUGGAUGGGGGAGAGCCCCCCAGCUUCCUG,0.206
